Measured values of several laboratories.
Lines come from different studies, so protocols differ. Several values in a cell are separate wells, animals, samples, runs or records. ± gives the spread as reported.
Chain of UniProt Q7M759 (whole entry, looked up): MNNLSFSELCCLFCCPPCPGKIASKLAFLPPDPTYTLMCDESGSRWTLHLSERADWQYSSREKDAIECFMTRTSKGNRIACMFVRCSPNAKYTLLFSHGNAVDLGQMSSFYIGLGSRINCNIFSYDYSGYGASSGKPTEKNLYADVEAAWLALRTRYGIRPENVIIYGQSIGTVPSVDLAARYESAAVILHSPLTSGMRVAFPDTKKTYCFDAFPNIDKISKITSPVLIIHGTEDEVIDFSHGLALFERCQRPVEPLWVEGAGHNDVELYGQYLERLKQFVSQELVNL
Chain of UniProt A5GZW8 (whole entry, looked up): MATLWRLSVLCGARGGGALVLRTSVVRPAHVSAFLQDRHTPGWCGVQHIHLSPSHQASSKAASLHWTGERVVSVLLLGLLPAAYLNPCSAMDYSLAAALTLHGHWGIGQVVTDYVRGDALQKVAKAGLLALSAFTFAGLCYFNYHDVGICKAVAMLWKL
Chain of UniProt D0VWV4 (whole entry, looked up): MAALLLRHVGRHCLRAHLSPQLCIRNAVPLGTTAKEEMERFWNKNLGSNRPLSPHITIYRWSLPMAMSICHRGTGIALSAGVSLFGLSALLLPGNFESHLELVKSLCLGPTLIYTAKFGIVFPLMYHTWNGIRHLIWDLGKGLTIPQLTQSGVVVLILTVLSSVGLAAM
Chain of UniProt Q007T0 (whole entry, looked up): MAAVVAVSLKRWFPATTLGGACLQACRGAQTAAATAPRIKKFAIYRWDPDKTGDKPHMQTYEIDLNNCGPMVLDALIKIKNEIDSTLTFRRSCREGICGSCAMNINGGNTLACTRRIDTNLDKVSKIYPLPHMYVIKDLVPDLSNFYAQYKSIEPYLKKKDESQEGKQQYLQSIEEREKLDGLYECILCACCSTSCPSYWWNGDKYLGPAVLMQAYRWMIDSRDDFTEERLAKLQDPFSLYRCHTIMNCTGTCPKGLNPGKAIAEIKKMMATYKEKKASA
Chain of UniProt Q9UM07 (whole entry, looked up): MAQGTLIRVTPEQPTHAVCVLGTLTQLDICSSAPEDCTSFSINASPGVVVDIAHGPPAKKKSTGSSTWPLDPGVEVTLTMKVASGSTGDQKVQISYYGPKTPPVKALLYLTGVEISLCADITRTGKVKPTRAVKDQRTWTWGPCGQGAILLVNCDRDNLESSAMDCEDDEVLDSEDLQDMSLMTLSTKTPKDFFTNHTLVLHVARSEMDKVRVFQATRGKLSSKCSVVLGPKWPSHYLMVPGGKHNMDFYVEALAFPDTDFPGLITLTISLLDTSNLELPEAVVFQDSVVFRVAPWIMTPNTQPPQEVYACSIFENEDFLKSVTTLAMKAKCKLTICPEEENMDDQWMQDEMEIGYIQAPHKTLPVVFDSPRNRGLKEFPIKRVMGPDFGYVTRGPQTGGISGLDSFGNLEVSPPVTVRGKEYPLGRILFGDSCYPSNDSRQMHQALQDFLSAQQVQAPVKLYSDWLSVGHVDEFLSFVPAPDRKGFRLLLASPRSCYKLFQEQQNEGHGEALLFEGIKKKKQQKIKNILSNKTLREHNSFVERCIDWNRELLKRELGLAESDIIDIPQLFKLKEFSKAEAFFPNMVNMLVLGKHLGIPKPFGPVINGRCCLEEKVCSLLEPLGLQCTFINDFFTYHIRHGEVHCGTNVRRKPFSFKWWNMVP
Chain of UniProt P08069 (whole entry, looked up): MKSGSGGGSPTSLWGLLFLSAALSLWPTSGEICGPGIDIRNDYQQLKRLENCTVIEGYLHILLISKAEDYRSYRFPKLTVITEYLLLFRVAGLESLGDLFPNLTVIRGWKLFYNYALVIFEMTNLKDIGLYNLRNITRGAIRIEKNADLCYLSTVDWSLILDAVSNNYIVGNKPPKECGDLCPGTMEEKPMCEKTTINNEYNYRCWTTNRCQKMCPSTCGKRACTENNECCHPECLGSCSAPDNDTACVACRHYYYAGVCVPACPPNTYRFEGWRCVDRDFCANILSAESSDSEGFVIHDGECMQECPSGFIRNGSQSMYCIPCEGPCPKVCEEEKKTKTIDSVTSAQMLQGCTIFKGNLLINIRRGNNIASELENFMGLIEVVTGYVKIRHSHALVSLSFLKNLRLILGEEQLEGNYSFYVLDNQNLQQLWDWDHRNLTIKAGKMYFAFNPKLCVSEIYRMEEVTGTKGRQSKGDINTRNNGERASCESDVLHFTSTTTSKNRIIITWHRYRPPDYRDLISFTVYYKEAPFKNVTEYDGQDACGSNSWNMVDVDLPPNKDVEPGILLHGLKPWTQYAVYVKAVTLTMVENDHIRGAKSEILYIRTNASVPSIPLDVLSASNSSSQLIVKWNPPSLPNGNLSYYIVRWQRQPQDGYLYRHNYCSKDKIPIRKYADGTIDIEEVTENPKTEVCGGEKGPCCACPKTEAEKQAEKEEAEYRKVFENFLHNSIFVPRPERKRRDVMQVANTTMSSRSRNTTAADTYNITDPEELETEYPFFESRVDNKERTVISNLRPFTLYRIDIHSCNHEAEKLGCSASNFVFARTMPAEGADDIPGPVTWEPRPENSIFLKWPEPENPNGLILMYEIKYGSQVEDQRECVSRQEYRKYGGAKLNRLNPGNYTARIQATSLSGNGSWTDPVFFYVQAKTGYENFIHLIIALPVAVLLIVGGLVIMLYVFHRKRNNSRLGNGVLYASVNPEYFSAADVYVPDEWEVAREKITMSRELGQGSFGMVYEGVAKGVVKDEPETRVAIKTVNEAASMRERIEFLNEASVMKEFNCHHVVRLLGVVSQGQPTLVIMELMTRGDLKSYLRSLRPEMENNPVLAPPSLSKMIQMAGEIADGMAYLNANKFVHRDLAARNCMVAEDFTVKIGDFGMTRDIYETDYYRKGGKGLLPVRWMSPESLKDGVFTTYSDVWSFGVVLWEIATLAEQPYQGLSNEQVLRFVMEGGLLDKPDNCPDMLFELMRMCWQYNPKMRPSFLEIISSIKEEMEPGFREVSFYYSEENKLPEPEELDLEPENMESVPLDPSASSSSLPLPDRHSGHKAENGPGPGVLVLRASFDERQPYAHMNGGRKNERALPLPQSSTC
Chain of UniProt O75460 (whole entry, looked up): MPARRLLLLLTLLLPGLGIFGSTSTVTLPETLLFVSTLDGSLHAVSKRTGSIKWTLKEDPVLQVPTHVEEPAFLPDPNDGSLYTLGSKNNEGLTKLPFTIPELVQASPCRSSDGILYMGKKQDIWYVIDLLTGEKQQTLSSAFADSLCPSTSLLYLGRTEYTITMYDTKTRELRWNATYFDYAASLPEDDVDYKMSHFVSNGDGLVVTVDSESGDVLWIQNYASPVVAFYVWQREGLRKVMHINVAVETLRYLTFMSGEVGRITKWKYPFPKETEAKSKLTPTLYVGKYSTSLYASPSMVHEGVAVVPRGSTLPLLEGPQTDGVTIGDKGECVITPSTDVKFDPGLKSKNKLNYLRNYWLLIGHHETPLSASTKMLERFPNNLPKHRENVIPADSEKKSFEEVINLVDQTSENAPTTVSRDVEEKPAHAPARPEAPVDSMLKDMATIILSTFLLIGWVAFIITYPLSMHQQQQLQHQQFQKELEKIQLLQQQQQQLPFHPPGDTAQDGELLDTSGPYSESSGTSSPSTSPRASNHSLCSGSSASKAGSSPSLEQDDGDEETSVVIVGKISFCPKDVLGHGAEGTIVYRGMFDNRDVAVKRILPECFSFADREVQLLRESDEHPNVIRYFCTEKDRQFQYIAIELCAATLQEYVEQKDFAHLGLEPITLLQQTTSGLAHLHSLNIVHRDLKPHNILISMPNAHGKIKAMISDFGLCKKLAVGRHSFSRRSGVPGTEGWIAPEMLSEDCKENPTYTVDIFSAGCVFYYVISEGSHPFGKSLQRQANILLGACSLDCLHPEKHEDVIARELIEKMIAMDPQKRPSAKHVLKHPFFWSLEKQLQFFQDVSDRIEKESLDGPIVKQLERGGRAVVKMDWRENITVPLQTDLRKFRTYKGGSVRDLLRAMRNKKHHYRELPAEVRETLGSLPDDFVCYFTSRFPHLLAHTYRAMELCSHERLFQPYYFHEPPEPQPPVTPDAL
Chain of UniProt P07711 (whole entry, looked up): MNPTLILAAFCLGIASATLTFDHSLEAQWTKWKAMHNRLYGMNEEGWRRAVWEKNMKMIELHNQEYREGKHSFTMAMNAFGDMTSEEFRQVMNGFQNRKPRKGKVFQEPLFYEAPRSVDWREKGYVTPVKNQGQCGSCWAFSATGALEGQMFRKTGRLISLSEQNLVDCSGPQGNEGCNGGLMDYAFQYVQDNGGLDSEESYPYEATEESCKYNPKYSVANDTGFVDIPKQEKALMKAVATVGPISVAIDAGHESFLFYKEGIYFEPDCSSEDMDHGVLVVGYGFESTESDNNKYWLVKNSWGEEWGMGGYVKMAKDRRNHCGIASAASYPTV

Compound = CON(C(=O)c1cn(C)nc1C(F)F)C(C)Cc1c(Cl)cc(Cl)cc1Cl (stereo not drawn); target = SDHD/SDHC/SDHB (Sus scrofa, UniProt A5GZW8+D0VWV4+Q007T0); test = enzyme activity, inhibitor, DCIP reduction; test system = pig; setting = 1 µM, with: DCIP 120 µM; quantity = reaction velocity; value = 0.00741 µM/s and 0.00685 µM/s
Compound = CCOC(=O)[C@@H]1Cc2c(cc([N+](=O)[O-])cc2[N+](=O)[O-])[C@H](O)[C@]12C(=O)Nc1ccc(Br)cc12; target = RIOK2 (Homo sapiens, UniProt Q9BVS4); test = binding, competition with immobilised ligand; setting = 0.1 µM; quantity = remaining binding; value = 97%
Compound = CCc1nnc(-c2c(OC)cc(-c3cnc4cc(-c5cnn(C)c5)ccn34)cc2OC)o1; target = PDE3A (Homo sapiens, UniProt Q14432); test = radioligand binding; setting = 10 µM, SafetyScreen44 replicate 2; scale = lower = stronger displacement; quantity = remaining binding; value = 104%
Compound = CN(C)CCCSC(=S)N1CCN(C(=O)/C=C/c2coc3ccccc3c2=O)CC1; target = Nucleoprotein (N, Tomato spotted wilt virus, UniProt P25999, Y184A); test = binding, microscale thermophoresis; setting = 0.1221 µM; scale = dose series; quantity = MST response; value = 838 a.u.
Compound = CCCNC(=O)[C@H]1O[C@@H]1C(=O)N[C@H](C(=O)N1CCC[C@H]1C(=O)OCC1=C2C(C)=CC(C)=[N+]2[B-](C)(C)n2c(C)cc(C)c21)[C@@H](C)CC; target = Procathepsin L (CTSL, Homo sapiens, UniProt P07711); test = irreversible inhibitor; setting = dark; quantity = kinact/KI; value = 10 ± 3 M⁻¹ s⁻¹
Compound = C#CCCCCOc1ccc2c(c1)CCCN2C(=O)CCl; target = ADH5 (Homo sapiens, UniProt P11766); test = mass spectrometry profiling; test system = H460 cell lysate; setting = 100 µM over 10 µM, UniProt P11766; scale = reference: high over low concentration; quantity = reactivity ratio; value = 1.48
Compound = CN(C)[C@H](CNC(=O)/C=C/c1cccc2ccccc12)Cc1ccc(O)cc1; target = Mu-type opioid receptor, with GoA (OPRM1, Homo sapiens, UniProt P35372); test = receptor activation, agonist; quantity = Emax; value = 73 ± 4%
Compound = COCC1CCCCN1C(=O)n1cc(C(O)(c2ccccc2)c2ccccc2)nn1 (stereo not drawn); target = Lysosomal protective protein (Ctsa, Mus musculus, UniProt P16675); test = enzyme activity, inhibitor, competitive ABPP-SILAC, item: Ctsa; test system = mouse T-cells; setting = concentration not given, 4 h, treated in situ; scale = reference: DMSO; quantity = activity ratio; value = 1.34
Compound = CN(C)[C@H]1C[C@@]23CC[C@@]4(O2)C(=CC[C@]2(C)[C@@H](c5ccc6ccncc6c5)CC[C@H]24)C=C3[C@@H](O)[C@@H]1O; target = ERN1 (Homo sapiens, UniProt O75460); test = ATP probe labelling, inhibitor, KiNativ profiling; setting = 1 µM; quantity = inhibition; value = -9.6%
Compound = CS(C)(=O)=Nc1ccc(-c2ccc(-c3nc4cc(O[C@@H]5CO[C@H]6[C@@H]5OC[C@H]6O)[nH]c4cc3F)cc2)cc1; target = DCLK3 (Homo sapiens, UniProt Q9C098); test = enzyme activity, inhibitor; setting = 10 µM; quantity = inhibition; value = -11%
Compound = COC1C2(O)C(=O)N3C=CC(C)(C)c4[nH]c5ccccc5c4C=C3C(=O)N2C23C(C)C(C)(C)N2c2ccccc2C13O (stereo not drawn); target = uncharacterized protein (Ixodes scapularis, UniProt A0A0N9E2I2); test = two-electrode voltage clamp; test system = Xenopus oocytes; setting = concentration not given, with: ivermectin; quantity = response amplitude; value = decreased
Compound = O=C(CCc1ccc(Br)cc1)N[C@H]1CCOC1=O; target = lasR (Pseudomonas aeruginosa, UniProt P25084); test = reporter gene, agonist; test system = Pseudomonas aeruginosa PAO-JP2; setting = 100 µM, plasI-LVAgfp reporter; scale = reference: OdDHL at same concentration; quantity = agonist activity; value = 8%
Compound = CC(C)CC(O)(CC(C)C)c1cn(C(=O)N2CCCC2)nn1; target = Alpha/beta hydrolase domain-containing protein 17B (Abhd17b, Mus musculus, UniProt Q7M759); test = probe labelling, inhibitor, item: Fam108b1; test system = mouse, brain; setting = i.p., 0.8 mg/kg, 4 h, single peptide; scale = reference: treated over vehicle mice, lower = stronger inhibition; quantity = activity ratio-of-ratios; value = 1.23 and 1.75 and 1.62 and 1.88
Compound = O=C(N[C@@H]1c2ccccc2C[C@H]1N1CCCC1)c1ccc(-c2ccnc3[nH]ccc23)nc1; target = HASPIN (Homo sapiens, UniProt Q8TF76); test = binding, competition with immobilised ligand; setting = 3 µM; quantity = remaining binding; value = 0.3%
Compound = CCN(N=Cc1cnc2ccc(Br)cn12)S(=O)(=O)c1cc([N+](=O)[O-])ccc1C; target = PIK3CA (Homo sapiens, UniProt P42336, S773D); test = luminescence; scale = reference: mutant over wild type; quantity = IC50 fold change; value = 2
Compound = CC(C)[C@H]1NC(=O)C[C@H]2/C=C/CCSSC[C@@H](NC1=O)C(=O)N[C@H](Cc1cccc3ccccc13)C(=O)NCC(=O)O2; target = IGF1R (Homo sapiens, UniProt P08069); test = enzyme activity, inhibitor; setting = 10 µM; quantity = inhibition; value = 0.8%
Compound = C[C@H](NCc1ccc(-c2ccc(C(F)(F)F)cc2)cc1)C(N)=O; target = NMDA receptor phencyclidine site, rat; test = binding, radioligand binding; test system = biochemical; setting = 1 µM, with: [3H]TCP 4.0 nM; quantity = inhibition; value = 3%
Compound = CCNC(=S)NN=Cc1c2ccccc2cc2ccccc12.Cc1ccc(C(C)C)cc1.[Cl-].[Cl-].[Ru+2]; target = Albumin (ALB, Homo sapiens, UniProt P02768); test = binding, van't Hoff, modified Stern-Volmer; setting = concentration not given; quantity = entropy change (ΔS°); value = 255 J/mol/K
Compound = CC[C@H](C)[C@H](NC(=O)[C@H](CCCNC(=N)N)NC(=O)[C@H](CCCNC(=N)N)NC(=O)[C@H](CC(C)C)NC(=O)[C@H](Cc1ccccc1)NC(=O)CNC(=O)CNC(=O)[C@@H](N)Cc1ccc(O)cc1)C(=O)N[C@@H](CCCNC(=N)N)C(=O)N1CCC[C@H]1C(=O)N[C@@H](CCCCN)C(=O)N[C@@H](CC(C)C)C(=O)N[C@@H](CCCCN)C(=O)O; target = GPR139 (Homo sapiens, UniProt Q6DWJ6); test = GoA activation, agonist, BRET; setting = 40 µM; quantity = maximal G protein activation; value = 100%
Compound = N[C@H](C(=O)N1CCCC1)C1CCN(c2nccc3c(-c4ncc(Cl)cc4Cl)cccc23)CC1; target = PADI4 (Homo sapiens, UniProt Q9UM07); test = thermal shift; setting = 0.00302 µM; quantity = melting temperature; value = 53.2 °C and 53.5 °C
Compound = O=C1NC(=O)c2c1c1cc(F)c[n+]3c1c1c2c2cc(O)ccc2[n]1[Ru-4]312([N]=C=S)[S+]3CC[S+]1CC[S+]2CC3 (stereo not drawn); target = TAOK1 (Homo sapiens, UniProt Q7L7X3); test = enzyme activity; setting = 100 nM, human enzyme, with: 10 µM ATP; scale = reference: untreated; quantity = remaining activity; value = 96%
Compound = CCCCC/C=C\C/C=C\C/C=C\C/C=C\CCCC(=O)NCCc1ccc(O)c(O)c1; target = Trpv1 (Mus musculus, UniProt Q704Y3, N552L); test = ion current, agonist, whole-cell patch clamp; setting = N552L; quantity = Hill coefficient; value = 2.39 ± 0.41
Compound = CN(C)CCCN1C(=O)CSC1c1ccccc1 (stereo not drawn); target = uncharacterized protein (Apis mellifera, UniProt A0A7M6W5G5); test = Ellman; setting = 1000 µM, with: acetylthiocholine; quantity = IC50; value = inactive
Compound = CC[C@H](C)[C@@H]1NC(=O)[C@@H](CCCNC(=N)N)NC(=O)[C@@H](NC(=O)[C@@H](CC(C)C)NC(=O)[C@H](C)NC(=O)[C@H](C)NC(=O)[C@@H]2CCCN2C(=O)[C@@H](CC(C)C)NC(=O)[C@@H](NC(=O)[C@@H](CCCNC(=N)N)NC(=O)[C@@H](CC(C)C)NC(=O)[C@@H](CC(C)C)NC(=O)[C@@H](NC(=O)[C@@H](CCCNC(=N)N)NC(=O)[C@@H](CC(C)C)NC(=O)[C@@H](NC(=O)[C@@H](NC(=O)CNC(=O)[C@@H](CC(C)C)NC(=O)[C@@H](N)Cc2ccccc2)[C@@H](C)O)C(C)C)C(C)C)C(C)C)CSSC[C@@H](C(=O)O)NC(=O)[C@@H](CCCNC(=N)N)NC(=O)[C@@H](CCCNC(=N)N)NC(=O)[C@H](Cc2ccccc2)NC1=O; target = Staphylococcus aureus lipoteichoic acid; test = lipoteichoic acid binding, BODIPY TR cadaverine displacement; setting = one quarter of MIC; quantity = concentration of LTA interaction; value = 0.5 µM

Excerpt of the above:
Compound = CN(C)CCCN1C(=O)CSC1c1ccccc1 (stereo not drawn); target = uncharacterized protein (Apis mellifera, UniProt A0A7M6W5G5); test = Ellman; setting = 1000 µM, with: acetylthiocholine; quantity = IC50; value = inactive
Compound = CCN(N=Cc1cnc2ccc(Br)cn12)S(=O)(=O)c1cc([N+](=O)[O-])ccc1C; target = PIK3CA (Homo sapiens, UniProt P42336, S773D); test = luminescence; scale = reference: mutant over wild type; quantity = IC50 fold change; value = 2
